Measurements from different studies.
Compare with care: the assays were run in different laboratories. Values joined by “and” are separate records of one study, mostly repeats; a detail may differ. ± marks the error that the study gave.
CASP8: Caspase-8 (CASP8, Homo sapiens, UniProt Q14790)
MAPK8: Mitogen-activated protein kinase 8 (MAPK8, Homo sapiens, UniProt P45983)
HSD3B1: 3 beta-hydroxysteroid dehydrogenase/Delta 5-->4-isomerase type 1 (HSD3B1, Homo sapiens, UniProt P14060)
DCPS: m7GpppX diphosphatase (DCPS, Homo sapiens, UniProt Q96C86)

CC[C@H](C)[C@H](NC(=O)[C@@H](NC(=O)[C@H](CCCCN)NC(=O)[C@@H](N)[C@@H](C)O)C(C)C)C(=O)N[C@@H](CC(C)C)C(=O)N[C@@H](Cc1c[nH]cn1)C(N)=O
ThT fluorescence (Microtubule-associated protein tau, PHF6* peptide (MAPT, Homo sapiens, UniProt P10636); fibril formation, ThT fluorescence; 0.1-fold of peptide, pH 7.4, together with: Ac-PHF6* 25 µM, heparin; relative to: untreated): 108 ± 2%

O=C1c2sc(-c3ccc(N4CCC(CO)CC4)nc3F)nc2CCN1c1cccnc1
specific binding (TAR DNA-binding protein 43, aggregated (TARDBP, Homo sapiens, UniProt Q13148); radioligand binding; human, FTLD-TDP type C sarkosyl-insoluble extract; 26.56 nM): 0.301 nM and 0.423 nM and 0.292 nM

CC(=O)N[C@@H](CC(C)C)C(=O)N[C@@H](CCC(N)=O)C(=O)N[C@@H](CCC(=O)O)C(=O)N[C@@H](CC(=O)O)C(=O)COC(=O)c1c(C)cccc1C
kinact/KI (CASP8; enzyme activity, inhibitor): 364000 M⁻¹ s⁻¹

C#CCOC(=O)[C@]1(C)C=C(C(=O)OC(C)(C)C)C(=O)CC1
normalized kinase activity (MAPK8; enzyme activity, D-SENSOR; 0.02032 µM, mean of replicates): 1.03

CC(=O)N[C@@H](CC(C)C)C(=O)N[C@@H](CCC(=O)O)C(=O)N[C@H](C(=O)N[C@@H](CC(=O)O)C(=O)COC(=O)c1c(C)cccc1C)[C@@H](C)O
kinact/KI (CASP8; enzyme activity, inhibitor): 1.48e+06 M⁻¹ s⁻¹

CCCCCCCO[C@H]1O[C@H](CO)[C@@H](O)[C@H](O)[C@@H]1O
ΔG (Type 1 fimbrin D-mannose specific adhesin, lectin domain (fimH, Escherichia coli K-12, UniProt P08191); binding, isothermal titration calorimetry; 37 °C, individual direct titrations): -10.6 kcal/mol and -10.5 kcal/mol

COC(=O)[C@]1(C(C)C)C=C(C(=O)Nc2cccc(C(=O)Nc3ccc(Nc4nccc(-c5cccnc5)n4)c(C)c3)c2)C(=O)CC1
ΔΔG bond formation contribution (MAPK8; SPR two-step binding model; reversible bond formation): -1.88 kcal/mol

O=C(NC[C@@H](Cc1ccc(F)cc1)N1CCC(O)(C(F)(F)F)CC1)C1(c2ccc(Cl)cc2)CCCC1
EC50 fold change (Transient receptor potential cation channel subfamily A member 1 (TRPA1, Homo sapiens, UniProt O75762, L881V); calcium influx, agonist; relative to: L881V mutant over wild type): 149

CC(=O)N[C@@H](CC(=O)O)C(=O)N[C@@H](CCC(=O)O)C(=O)N[C@H](C(=O)N[C@@H](CC(=O)O)C(=O)COC(=O)c1c(C)cccc1C)C(C)C
kinact/KI (Caspase-10 (CASP10, Homo sapiens, UniProt Q92851); enzyme activity, inhibitor): 183000 M⁻¹ s⁻¹

Cc1ncsc1-c1ccc(CNC(=O)[C@@H]2C[C@@H](O)CN2C(=O)[C@@H](NC(=O)COCC(C)(COCCOCCOCCNC(=O)C[C@@H]2N=C(c3ccc(Cl)cc3)c3c(sc(C)c3C)-n3c(C)nnc32)COCCOCCOCCNC(=O)C[C@@H]2N=C(c3ccc(Cl)cc3)c3c(sc(C)c3C)-n3c(C)nnc32)C(C)(C)C)cc1
% Rmax (BRD4/VHL, BD1 (Homo sapiens, UniProt O60885+P40337); ternary complex binding, SPR single-cycle kinetics; together with: BRD4 bromodomains): 53 ± 5%

CCN(CC)C(CO)c1cccc2c(C)c(C)oc12 (centres unmarked)
fold change (Lysophosphatidic acid receptor 1 (LPAR1, Homo sapiens, UniProt Q92633, W271A); G-protein dissociation, agonist, NanoBiT; HEK-293T; 1 nM, W271A mutant; relative to: baseline luminescence): 1.01 and 1.03 and 0.995 and 1.04

CCCCCCCCCCCCCCCC(=O)OCC(CSC[C@H](N)C(=O)N[C@@H](CO)C(=O)N[C@@H](CCCCN)C(=O)N[C@@H](CCCCN)C(=O)N[C@@H](CCCCN)C(=O)N[C@@H](CCCCN)C(=O)NCCCCCC(=O)N[C@@H](CCCCN)C(=O)N[C@@H](CC(C)C)C(=O)N[C@H](C(=O)N[C@@H](Cc1ccccc1)C(=O)N[C@@H](Cc1ccccc1)C(=O)N[C@@H](Cc1ccc2ccccc2c1)C(=O)O)C(C)C)OC(=O)CCCCCCCCCCCCCCC (some centres unmarked)
fibril diameter (Amyloid-beta precursor protein, fibrillar amyloid-beta (APP, Homo sapiens, UniProt P05067); TEM; 2.0 eq, 5 h, fibril 6, together with: APP 20 µM): 125 nm

CC1(C)C[N+]2=Cc3ccc4[n]3[Au-]23[n]2c(ccc2-c2nc5ccccc5nc2-4)C=[N+]3C1.F[P-](F)(F)(F)(F)F
Hill coefficient (DNA topoisomerase 1 (TOP1, Homo sapiens, UniProt P11387)): 1.8

CC(=O)N[C@@H](CC(C)C)C(=O)N[C@H](C(=O)N[C@@H](Cc1ccc(O)cc1)C(=O)N[C@@H](CC(=O)O)C(=O)COC(=O)c1c(C)cccc1C)C(C)(C)C
kinact/KI (CASP8; enzyme activity, inhibitor): 277000 M⁻¹ s⁻¹

CC1(C)C[C@@H](Nc2cccc(-c3sc(C(=O)O)c(OCC(=O)O)c3Cl)c2)CCN1S(=O)(=O)Cc1cccc(NC(=O)CN2CCC(c3ccc4c(c3)oc(=O)n4C3CCC(=O)NC3=O)CC2)c1 (some centres unmarked)
BLI binding response (Tyrosine-protein phosphatase non-receptor type 2 (PTPN2, Homo sapiens, UniProt P17706); degrader, bio-layer interferometry; 31.3 nM, biotinylated protein immobilised; higher = more binding): 0.111 a.u. and 0.0967 a.u.

Cc1cc(NC(=O)[C@H](O)c2cc(F)cc(F)c2)ccc1-c1cnc(N)c(C(=O)NC(C)C)c1
remaining binding (Mitogen-activated protein kinase kinase kinase 3 (MAP3K3, Homo sapiens, UniProt Q99759); binding, competition with immobilised ligand; 1 µM): 88%

O=c1c(-c2ccc(CO)cc2)coc2cc(O)ccc12
DHEA metabolism (HSD3B1; [3H]-DHEA conversion; LNCaP; 0.1 µM, normalized to protein, unit not given; relative to: vehicle): 0.9

CO[C@@H]1[C@H](O)[C@@H](COP(=O)(O)OP(=O)([O-])C(F)(F)P(=O)(O)OP(=O)(O)OC[C@H]2O[C@@H](n3cnc4c(=O)[nH]c(N)nc43)[C@H](O)[C@@H]2O)O[C@H]1n1c[n+](C)c2c(O)nc(N)nc21
hydrolysis (DCPS; substrate, HPLC; concentration not given, 15 min): 2.3 ± 0.4%

CCCCCC=CC=C1C(=O)C=CC1CC=CCCCC(=O)O (centres unmarked)
isoTOP-ABPP competition ratio (Bleomycin hydrolase (Homo sapiens, UniProt Q13867); competitive isoTOP-ABPP; proteome, soluble, MDA-MB-231; 100 µM, 60 min, together with: iodoacetamide probe; relative to: DMSO over compound-treated, higher = stronger cysteine blockade): 5.9

C=C1C(=O)C2(C(=O)N3CCCCC3)CC(=O)CC1C2 (racemic)
kinact/KI (Tyrosine-protein phosphatase non-receptor type 11 (PTPN11, Homo sapiens, UniProt Q06124); enzyme activity, covalent inhibitor; together with: pNPP substrate): 19.4 M⁻¹ s⁻¹

CC[C@H](C)[C@@H]1NC(=O)[C@H](Cc2ccccc2)NC(=O)[C@H](CCC(=O)O)NC(=O)[C@H](CCCNC(=N)N)NC(=O)CNC(=O)[C@@H](NC(=O)[C@H](CC(C)C)NC(=O)[C@H](CCCNC(=N)N)NC(=O)[C@@H](NC(=O)CNC(=O)[C@H](Cc2ccc(O)cc2)NC(=O)[C@@H]2CCCN2C(=O)[C@H](C)NC(=O)[C@H](C)NC(=O)[C@@H](N)CCCNC(=N)N)C(C)C)CSSC[C@@H]2NC(=O)[C@@H](NC(=O)[C@H](CO)NC(=O)[C@H](CO)NC(=O)[C@H](CO)NC(=O)[C@H](CC(C)C)NC(=O)CNC(=O)[C@H](C)NC(=O)[C@H](CC(C)C)NC(=O)[C@@H](NC(=O)[C@@H](N)CC(=O)O)C(C)C)CSSC[C@H](NC(=O)CNC(=O)[C@H](Cc3c[nH]c4ccccc34)NC(=O)[C@H](CCCCN)NC2=O)C(=O)N[C@@H](CO)C(=O)N[C@@H](CCCCN)C(=O)N[C@@H](CO)C(=O)N[C@@H](CCC(=O)O)C(=O)N[C@@H]([C@@H](C)CC)C(=O)N[C@@H](CO)C(=O)N[C@@H](CO)C(=O)N[C@@H](CC(C)C)C(=O)N[C@H](C(=O)O)CSSC[C@@H](C(=O)NCC(=O)NCC(=O)N[C@@H](CO)C(=O)N[C@@H](CCCNC(=N)N)C(=O)N[C@@H](Cc2c[nH]c3ccccc23)C(=O)O)NC(=O)[C@H]([C@@H](C)O)NC(=O)[C@H](Cc2ccccc2)NC(=O)[C@H]([C@@H](C)CC)NC(=O)[C@H](C(C)C)NC(=O)[C@H](C)NC(=O)[C@H](CCCNC(=N)N)NC1=O
ΔpEC50 (Relaxin-3 receptor 2 (RXFP4, Homo sapiens, UniProt Q8TDU9, F291A); F291A mutant, unit not given; relative to: wild type): -0.415 and -0.432 and -1.09

CC(=O)N[C@@H](CCC(N)=O)C(=O)N[C@@H](CC(C)C)C(=O)N1CCC[C@H]1C(=O)N[C@@H](CC(=O)O)C(=O)COC(=O)c1c(C)cccc1C
kinact/KI (CASP8; enzyme activity, inhibitor): 44000 M⁻¹ s⁻¹

Cn1cc(-c2cc(N3CCCCS3(=O)=O)ccc2N[C@H]2CC[C@H](C)CC2)c2cc[nH]c2c1=O (stereo in doubt)
remaining binding (Transcription intermediary factor 1-alpha, PHD-bromodomain (TRIM24, Homo sapiens, UniProt O15164); bromodomain binding, competition binding; 1 µM, PHD-bromodomain; relative to: control): 100%

Nc1c(NCc2ccccc2)c2ccccc2oc1=O
agonist activity (Alpha-1A adrenergic receptor (ADRA1A, Homo sapiens, UniProt P35348); intracellular Ca2+ mobilization, agonist; COS-7; 500 µM; relative to: 3 µM ionomycin): 6.24 ± 2.13%

O=c1c(-c2ccc(Cl)c(CN3CCCC3)c2)coc2cc(O)ccc12
DHEA metabolism (HSD3B1; [3H]-DHEA conversion; LNCaP; 0.1 µM, normalized to protein, unit not given; relative to: vehicle): 2.02

C[n+]1cn([C@@H]2O[C@H](COP(=O)([O-])OP(=O)(O)CP(=O)(O)OP(=O)(O)OC[C@H]3O[C@@H](n4cnc5c(=O)[nH]c(N)nc54)[C@H](O)[C@@H]3O)[C@@H](O)[C@H]2O)c2nc(N)nc(O)c21
hydrolysis (DCPS; substrate, HPLC; concentration not given, 30 min): 0%

CC(C)Oc1cc(Cl)ccc1CNc1cc(-c2ccccc2)nc2ncnn12
cAMP luminescence (G-protein coupled receptor 3 (GPR3, Homo sapiens, UniProt P46089); cAMP reporter; human cells; 3 µM; higher is more cAMP): 5870 a.u. and 8000 a.u. and 4580 a.u. and 1880 a.u. and 2880 a.u. and 3620 a.u. and 5230 a.u.

CC[C@H](C)[C@H](NC(=O)[C@@H](NC(=O)[C@@H](NC(=O)[C@@H](NC(=O)[C@@H](N)CCCCN)C(C)C)C(C)C)C(C)C)C(=O)N[C@H](C(N)=O)[C@@H](C)O
aggregation half-time (Microtubule-associated protein tau (MAPT, Homo sapiens, UniProt P10636); fibril formation, ThT fluorescence; 0.1-fold of tau, 37 °C, together with: wild-type tau 10 µM, heparin; relative to: untreated): 69 ± 10%

CCCCCC(O)/C=C/C=O (centres unmarked)
isoTOP-ABPP competition ratio (Exportin-2 (Homo sapiens, UniProt P55060); competitive isoTOP-ABPP, refers to: CSE1L cysteine peptide; Ramos soluble proteome; 100 µM, together with: iodoacetamide probe; relative to: DMSO over compound-treated, higher = stronger cysteine blockade): 1.3

Some of these lines once more:
CC(=O)N[C@@H](CC(C)C)C(=O)N[C@@H](CCC(N)=O)C(=O)N[C@@H](CCC(=O)O)C(=O)N[C@@H](CC(=O)O)C(=O)COC(=O)c1c(C)cccc1C
kinact/KI (CASP8; enzyme activity, inhibitor): 364000 M⁻¹ s⁻¹

C#CCOC(=O)[C@]1(C)C=C(C(=O)OC(C)(C)C)C(=O)CC1
normalized kinase activity (MAPK8; enzyme activity, D-SENSOR; 0.02032 µM, mean of replicates): 1.03

CC(=O)N[C@@H](CC(C)C)C(=O)N[C@@H](CCC(=O)O)C(=O)N[C@H](C(=O)N[C@@H](CC(=O)O)C(=O)COC(=O)c1c(C)cccc1C)[C@@H](C)O
kinact/KI (CASP8; enzyme activity, inhibitor): 1.48e+06 M⁻¹ s⁻¹

CCCCCCCO[C@H]1O[C@H](CO)[C@@H](O)[C@H](O)[C@@H]1O
ΔG (Type 1 fimbrin D-mannose specific adhesin, lectin domain (fimH, Escherichia coli K-12, UniProt P08191); binding, isothermal titration calorimetry; 37 °C, individual direct titrations): -10.6 kcal/mol and -10.5 kcal/mol
